Assay results of several laboratories.
Parts stem from different laboratories: compare values within a part only.

Series 1
Target: Prothrombin, mature alpha-thrombin (F2, Homo sapiens, UniProt P00734)
Method: aptamer microarray, sandwich
Form: DNA with 2'F-ANA
Sample: in vitro
Tested at: 200 nM
Setting: whole 15-mer aptamer, many near background
With: Cy3 exosite-II aptamer, 400 nM
Reading: higher = stronger binding
Oligonucleotide: GGTTGGTGTGGTTGG
| Modification | mean fluorescence intensity |
| --- | --- |
| 2'F-ANA at 2 9 10 12 14 15 | 87.1 a.u. |
| 2'F-ANA at 1 4 5 6 8 9 10 11 12 13 | 72.3 a.u. |
| 2'F-ANA at 4 7 8 11 13 15 | 253 a.u. |
| 2'F-ANA at 3 4 5 6 7 8 10 11 14 15 | 49 a.u. |
| 2'F-ANA at 2 3 4 6 8 9 10 11 | 198 a.u. |
| 2'F-ANA at 3 4 5 6 8 10 11 13 | 45.8 a.u. |
| 2'F-ANA at 1 2 7 10 11 12 13 15 | 93.2 a.u. |
| 2'F-ANA at 1 5 8 11 12 13 14 | 72 a.u. |
| 2'F-ANA at 2 4 5 6 8 11 | 69.6 a.u. |
| 2'F-ANA at 1 2 4 5 7 14 15 | 43.5 a.u. |
| 2'F-ANA at 1 2 3 6 7 8 11 12 14 15 | 89.9 a.u. |
| 2'F-ANA at 1 3 4 8 9 10 11 15 | 60.1 a.u. |
| 2'F-ANA at 2 3 7 9 10 11 13 15 | 310 a.u. |
| 2'F-ANA at 2 6 7 12 13 14 | 165 a.u. |
| 2'F-ANA at 2 3 4 5 6 10 12 | 84.6 a.u. |
| 2'F-ANA at 1 5 9 12 14 | 43.1 a.u. |
| 2'F-ANA at 1 2 4 5 6 7 9 10 13 | 49.3 a.u. |
| 2'F-ANA at 1 2 8 10 11 12 13 14 15 | 46.8 a.u. |
| 2'F-ANA at 1 3 4 5 9 10 15 | 43.9 a.u. |
| 2'F-ANA at 1 3 4 8 10 11 12 13 | 66.6 a.u. |
| 2'F-ANA at 1 5 9 10 11 14 | 62.4 a.u. |
| 2'F-ANA at 2 4 5 6 10 12 13 | 48.3 a.u. |
| 2'F-ANA at 1 2 5 9 10 11 13 14 | 49.1 a.u. |
| 2'F-ANA at 1 2 3 4 5 6 8 9 13 | 63.5 a.u. |

Series 2
Target: RNA binding protein fox-1 homolog 2, RRM domain, GST-SBP tag (RBFOX2, Homo sapiens, UniProt O43251-10, residues 100-194)
Method: RNA Bind-n-Seq
Form: RNA
Sample: in vitro
Tested at: 365 nM
Setting: natural RNA segment, single round, ends assumed
Baseline: no-protein control
Reading: higher = stronger binding
Shared flanks, not repeated: GGGAGUUCUACAGUCCGACGAUC … UGGAAUUCUCGGGUGCCAA
Target sequence (chain): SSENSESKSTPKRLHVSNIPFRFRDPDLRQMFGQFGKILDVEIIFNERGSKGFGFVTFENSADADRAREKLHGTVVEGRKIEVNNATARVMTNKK
| Oligonucleotide | RBNS enrichment (R) |
| --- | --- |
| AUAUAAUUUGAAUGACUGUGAAAACAUAUGACCUUUGAUAACGAACUCAUUUGCUCACUCCUUGACAGCAAAGCCCAGUACGUACAAUUGUGUUGGGUGUGGGUGGUCUC | 0.766 |
| CAGGAACCCAUUGUGGAGUAGACUCUCUUCUUCUAUGGAGCCUCUGACAUGGGGAGCAAUGCUAAGCAAGCUAAGUGUAAAAGAAAAGUGACAGAAUAAUUUUGGAAGAG | 0.706 |
| ACCAUCAGAUAACUGUAUUUUGUCAGGUGCAAUAAAAACAAAAUUAAAACCCAAAUCAUCAAGAAAACCUGUAUUCCUGGCUUCCUUGUAUACACAUGAUGUGACUAGAG | 0.309 |
| CUGCACUCCAGCCUGGGCAACACAGCGAGACUCCGUCUCGAGGAAAAAAAAAGAAAAGAUACGUGCCUGCGGUGAGGAAGCUGGGCGCUGUUUUCGAGUUCAGGUGAAUU | 0.435 |
| CGACUUUCUGCCUGGAGUGUAUGACUGCACAUGACUCGGGGGUGGGGAAAGGGGUCGGCUGACCAUGCUCAUCUGCUGGUCCGUGGGACGGUGCCCAAGCCAGAGGCUGG | 0.662 |
| GCUGUAUUAGAUGCUCACAUUCUUUUGUGUCCAUCUCCCUGGGUAGACUGAACUGUGCUCAGGGAUGAGCUUUGCUCAUUUUUGUAUCCUUCCGUUCUAGCCCAGUAUCC | 0.204 |
| UAGAAAUUUAAUAUAAUCAGCCUUAACUAUGUUGUCUAACUCCUAAAGUACUUUGUUAUAAAGUCUUGAUUUCAUCAUAAUUUGUUACAUUUGUCUAUAUUUCCUACGGU | 0.776 |
| UCUGGGCACAGAUUCUGGUGGCUCCCUGCUGGCCCUCUUGGGCCUCUGCUCACACCUGGGAAGGGGCUCUCUAAAUCCCGGCCAGAAACUCUGACUUGUGCCAACAAUAG | 0.31 |

Series 3
Target: Ras GTPase-activating protein-binding protein 1, RRM domain (G3BP1, Homo sapiens, UniProt Q13283)
Sequence of UniProt Q13283 (whole entry, looked up): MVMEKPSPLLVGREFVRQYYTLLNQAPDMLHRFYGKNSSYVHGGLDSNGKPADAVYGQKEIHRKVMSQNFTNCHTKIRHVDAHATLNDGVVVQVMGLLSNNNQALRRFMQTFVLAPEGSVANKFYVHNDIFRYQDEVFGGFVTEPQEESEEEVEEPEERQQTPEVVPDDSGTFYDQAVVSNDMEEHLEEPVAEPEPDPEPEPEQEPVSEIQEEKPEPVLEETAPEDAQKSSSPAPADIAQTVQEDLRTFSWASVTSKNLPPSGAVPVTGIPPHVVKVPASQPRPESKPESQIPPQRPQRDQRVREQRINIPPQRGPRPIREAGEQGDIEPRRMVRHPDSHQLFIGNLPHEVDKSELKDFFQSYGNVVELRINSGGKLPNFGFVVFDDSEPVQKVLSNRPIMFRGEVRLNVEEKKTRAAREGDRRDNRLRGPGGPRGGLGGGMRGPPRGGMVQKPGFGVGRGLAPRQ
Method: RNA Bind-n-Seq
Form: RNA
Sample: in vitro
Tested at: 1 µM
Setting: whole 134-nt RNA, ends assumed
With: 150 mM KCl
Baseline: input library
Reading: higher = stronger binding
Shared flanks, not repeated: GGGAGUUCUACAGUCCGACGAUC … UGGAAUUCUCGGGUGUCAAGG
| Oligonucleotide | log2 enrichment |
| --- | --- |
| UCAAGUCCUGUGCUACACAUCGUAUGUACCGAAUCGGGUUGGGUUGGGGUUGGGAAAGUAUUAUGUUACGCCGUUCGGAUCUGCACUUCC | 0.784 |
| AAGUCCUGUGCUACACAUCGUAUGUACCGAAUCGGGUUUGGGGUUUGGGGUUUGGGGAAAGUAUUAUGUUACGCCGUUCGGAUCUGCACU | 0.655 |
| UGGCCCUGGUGGCAUGCGGGGAGGAAGAGGUGGCCUCAUGGAUCGUGGCGGUCCCGGUGGAAUGUUCAGAGGUGGCCGUGGUGGAGACAG | -0.0492 |
| CUCAAGUCCUGUGCUACACAUCGUAUGUACCGAAUCGGGGCGGGGCGGGGCGGAAAGUAUUAUGUUACGCCGUUCGGAUCUGCACUUCCA | 0.0417 |
| CCUGUGCUACACAUCGUAUGUACCGAAUCGGGGUUUUUUUGGGGUGGGGAAAAAAAGGGGAAAGUAUUAUGUUACGCCGUUCGGAUCUGC | 0.269 |
| AGUCCUGUGCUACACAUCGUAUGUACCGAAUCGGUUUUUGGGUUUUUGGGGUUUUUGGAAAGUAUUAUGUUACGCCGUUCGGAUCUGCAC | -0.137 |
| UUUUCUUCUGGGGCAUUUAUCCGUGCUGAUCUUGGUGAAUGGGGCAUGAGUCUAACGAUCAGAGCCCCUAGUGUAGAUUACAGAAACACU | -0.165 |
| UUUUCAAGGGCCGCUUGAAGAUGCCAUUGAAGAUGAGGAAGAAGAAUGUCCAUCAGAGGAAACAGACAUCAUCUCCAAAGGAGACUUUCC | -0.247 |
| CUUAUGCCUUCCCCACUGGUAUUGAGGGUUUUGAUAAUAAAUUGGUAGGAAAAAAAAGUACCUCCUAGAAGGAAGCCUUCCCCACCAUUU | -0.176 |

Series 4
Target: Sal-like protein 4, full length isoform A (SALL4, Homo sapiens, UniProt Q9UJQ4, residues 1-1053)
Sequence of UniProt Q9UJQ4 (whole entry, looked up): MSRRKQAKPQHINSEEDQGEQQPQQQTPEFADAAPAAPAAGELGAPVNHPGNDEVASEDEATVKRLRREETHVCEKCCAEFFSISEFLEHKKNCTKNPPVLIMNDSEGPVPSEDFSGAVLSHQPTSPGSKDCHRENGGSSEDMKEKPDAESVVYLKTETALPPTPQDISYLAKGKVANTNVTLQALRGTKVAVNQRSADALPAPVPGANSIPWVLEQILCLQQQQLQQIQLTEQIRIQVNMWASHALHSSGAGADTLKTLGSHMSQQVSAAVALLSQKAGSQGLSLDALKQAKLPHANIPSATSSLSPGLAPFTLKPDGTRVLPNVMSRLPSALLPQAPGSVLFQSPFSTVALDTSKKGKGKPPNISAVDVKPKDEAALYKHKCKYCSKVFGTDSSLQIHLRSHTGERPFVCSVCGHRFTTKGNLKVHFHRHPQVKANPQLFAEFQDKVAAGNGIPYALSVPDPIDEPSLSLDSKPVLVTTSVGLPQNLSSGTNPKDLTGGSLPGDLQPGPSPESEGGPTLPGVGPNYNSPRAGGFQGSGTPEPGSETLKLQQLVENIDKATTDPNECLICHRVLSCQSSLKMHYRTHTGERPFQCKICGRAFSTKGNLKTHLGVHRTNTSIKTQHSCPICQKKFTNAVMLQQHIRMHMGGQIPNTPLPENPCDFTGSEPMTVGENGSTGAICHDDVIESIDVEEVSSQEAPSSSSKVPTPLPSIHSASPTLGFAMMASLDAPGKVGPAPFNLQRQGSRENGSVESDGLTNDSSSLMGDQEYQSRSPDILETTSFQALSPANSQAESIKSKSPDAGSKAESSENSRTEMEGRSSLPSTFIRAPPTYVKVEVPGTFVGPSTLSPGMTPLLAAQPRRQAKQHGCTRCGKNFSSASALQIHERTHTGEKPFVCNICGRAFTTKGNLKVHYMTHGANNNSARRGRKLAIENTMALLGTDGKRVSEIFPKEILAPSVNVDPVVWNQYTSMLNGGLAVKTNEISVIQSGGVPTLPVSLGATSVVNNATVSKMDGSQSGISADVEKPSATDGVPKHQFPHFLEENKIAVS
Method: universal PBM
Form: double-stranded DNA, one strand shown
Sample: in vitro
Tested at: 600 nM
Setting: 8-mer, flanks averaged, mean of replicates
Reading: higher = stronger binding
| Oligonucleotide | E-score |
| --- | --- |
| AGAGATCA | 0.00982 |
| ATTCAGAG | 0.008 |
| CATACTAG | 0.162 |
| GAGGTGAC | -0.0171 |
| CACCCACG | -0.359 |
| AGCAGCAC | -0.262 |
| CAAACCAG | -0.0924 |
| ACGCTGAC | -0.182 |
| ATTATAAC | 0.317 |
| CAAGCCAC | -0.28 |
| GTGTCCTA | -0.0946 |
| GCGTATTA | 0.213 |
| AAGAGATG | 0.00592 |
| AAGCAAAC | 0.047 |
| AGAGCTGC | -0.339 |
| TAAGGTGA | 0.0432 |
| GGTTGCCA | -0.195 |
| ATGCACGG | -0.204 |
| AGGTGATC | 0.0193 |
| AAAGATTC | 0.158 |
| GAGATCTC | -0.174 |
| AAATCTAG | 0.0762 |
| ACAACAGG | -0.000345 |
| AAAAACGC | 0.00085 |
| AATCCCGG | -0.204 |

Some of these lines once more (series 1):
| Modification | mean fluorescence intensity |
| --- | --- |
| 2'F-ANA at 2 3 7 9 10 11 13 15 | 310 a.u. |
| 2'F-ANA at 1 3 4 5 9 10 15 | 43.9 a.u. |
| 2'F-ANA at 2 4 5 6 10 12 13 | 48.3 a.u. |
